Published values pooled from the literature.
Each numbered part is a random draw from the data of one study; scales do not carry over between parts. Several values in a cell are separate wells, animals, samples, runs or records.

Series 1
Target: chymotrypsin
Read-out: enzyme activity
Mode: inhibitor
Tested at: 10 µM
Setting: with DTT
Measurement: inhibition
O=c1c(O)c(-c2cc(O)c(O)c(O)c2)oc2cc(O)cc(O)c12: 3.8%
O=c1cc(-c2ccccc2)oc2cc(O)c(O)c(O)c12: 11.1%
O=C(/C=C/c1ccc2ccccc2n1)c1ccncc1: 5.3%
S=C=NCc1ccccc1: 10.2%
O=C(O)[C@@H](S)[C@@H](S)C(=O)O: 8.4%
O=C(O)C1=CC(=C(c2ccc(O)c(C(=O)O)c2)c2ccc(O)c(C(=O)O)c2)C=CC1=O: 6.2%
C=C1C(=O)O[C@H]2[C@H]1CC/C(C)=C/CC[C@@]1(C)O[C@@H]21: -1%
Sc1nnnn1-c1ccccc1: 4.5%
CCOC(=O)c1c(N)sc(-c2ccccc2)c1C: 5.8%
O=C(c1ccc(Cl)cc1)c1cc([N+](=O)[O-])ccc1N1CCOCC1: 7.3%

Series 2
Target: Kappa-type opioid receptor (OPRK1, Homo sapiens, UniProt P41145)
Sequence of UniProt P41145 (whole entry, looked up): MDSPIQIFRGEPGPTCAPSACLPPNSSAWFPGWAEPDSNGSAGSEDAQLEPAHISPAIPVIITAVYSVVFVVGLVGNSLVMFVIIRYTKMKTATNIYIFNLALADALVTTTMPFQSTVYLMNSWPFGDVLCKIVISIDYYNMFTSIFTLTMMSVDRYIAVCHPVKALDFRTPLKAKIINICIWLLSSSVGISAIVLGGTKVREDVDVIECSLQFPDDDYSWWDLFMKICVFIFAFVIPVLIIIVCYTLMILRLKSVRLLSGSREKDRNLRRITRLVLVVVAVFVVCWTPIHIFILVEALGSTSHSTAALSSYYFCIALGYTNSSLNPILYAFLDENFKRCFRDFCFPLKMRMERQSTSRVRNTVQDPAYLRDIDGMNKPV
Read-out: binding
Technique: radioligand binding
Tested at: 10 µM
Measurement: inhibition
Cn1cncc1[C@](O)(COc1ccc(C#N)cc1-c1ccc(OC(F)(F)F)cc1)c1ccc(C#N)cc1: -7.18%
CNC(=O)c1ccc(Nc2ncc(C(F)(F)F)c(NCc3nccnc3N(C)S(C)(=O)=O)n2)cc1: 10.8%
CN1CCN(C(=O)C(C)(C)c2ccc(C(=O)Nc3cn4cc(-c5ccncc5)ccc4n3)cc2)CC1: -6.32%
CNC(=O)c1cc(C(=O)NC2CC2)cn(Cc2ccccc2)c1=O: 39.9%
O=C1c2ccc(Nc3ccc(F)cc3F)cc2CCc2ccc(OC[C@H](O)CO)cc21: -4%
C[C@H](NC(=O)c1cnc2n1[C@](C)(Cc1ccc(C#N)cc1)C(=O)N2c1cc(Cl)c(F)c(Cl)c1)C(=O)NC1(c2ccccn2)CC1: 9.67%
Cc1c(NC(=O)c2cc(C(N)=O)nc3cc(F)ccc23)c(C(F)(F)F)nn1Cc1ccc(C(C)(C)C)cc1: 22.1%
CC(=O)c1c(NS(C)(=O)=O)c2cc(-c3ccc(Cl)cc3)c(-c3ccc(Cl)cc3Cl)nc2n(C)c1=O: 2.99%
COc1nc2ccc([C@@](O)(c3ccccc3)C3CCN(C(C)=O)CC3)cc2c(Cl)c1Cc1ccc(-n2cccn2)cc1: -6%
O=C(O)c1cc(-c2ccc(C3CCNCC3)cc2)c2ccc(-c3ccc(C(F)(F)F)cc3)cc2c1: 41.7%
Cc1nccc(COC(=O)N2C[C@@H]3[C@@H](CNC(=O)c4ccc5[nH]nnc5c4)[C@@H]3C2)n1: 9.47%
COc1cccc(CNC(=O)c2nc3scc(COCc4ccc(C(=O)O)cc4)c3c(=O)[nH]2)c1: 8.18%
Cc1nc(C2CCN(C(=O)c3ccc(OC(F)(F)F)cc3N)CC2)c2ncc(N3CCN(C)CC3)cc2n1: 21.2%
Cc1cc(-n2nc(Cc3cc(F)cc(C(F)(F)F)c3)nc2C)ccc1C(N)=O: 16%
CC(C)CC(=O)N1CCc2nc(-c3ccc(Br)cc3)nc(N(C)Cc3ccccc3)c2C1: 38%
CC(C)(O)c1cncc(-c2nc3ccc(F)cc3n2C2CC2)c1: -8.65%
O=C(Nc1ccc(-n2nc(-c3cccnc3)cc2C(F)(F)F)cn1)c1ccc(-c2ccccc2)c(F)c1: 13.8%
CCCOc1ccc([C@H]2[C@H](C(=O)O)[C@@H](c3ccc4c(c3)OCO4)CN2CC(=O)Nc2c(CC)cccc2CC)cc1: 35.3%
COCc1nc2cnc3cc(-c4c(C)noc4C)c(OC[C@H]4CCNC4)cc3c2n1[C@H](C)c1ccccc1: 15.5%
Cc1nc(Cc2cccc(C(F)(F)F)c2)sc1-c1ccc(C(N)=O)nc1: 3.47%
O=C(NC[C@@H]1[C@H]2CN(C(=O)OCc3cc(C(F)(F)F)cc(C(F)(F)F)c3)C[C@@H]12)c1ccc2[nH]nnc2c1: 27.8%
Cc1nc(N2CC[C@@H](O)C2)ncc1-c1cc(C(F)(F)F)cc2[nH]ncc12: 7.69%
CNC(=O)Nc1ccc2c(c1)[C@]1(CC2)OC(=O)N(CC(=O)N(Cc2ccc(F)cc2)[C@@H](C)C(F)(F)F)C1=O: 8.21%
O=C([C@H]1C[C@H](O)CN1c1ccc(Cl)cc1)N1CC2COCC(C1)N2Cc1ccc(Cl)cc1: 18.7%
CC(=O)N1CCC(c2ccc(C(=O)NC(=N)N)cc2C(F)(F)F)CC1: 9.26%

Series 3
Cell line: HaCaT
Tested at: 100 µM
Time: 36 h
Measurement: viability
O=C(CCCN1CCC2(CC1)C(=O)NCN2c1ccccc1)c1ccc(F)cc1: 29.4%
O=C(O)c1nn(Cc2ccc(Cl)cc2Cl)c2ccccc12: 97.2%
CC(C)N(CCNC(=O)CN1CCCC1=O)C(C)C: 81.8%
C[N+]12CCC(CC1)C(OC(=O)C(O)(c1ccccc1)c1ccccc1)C2 (stereo not drawn): 87.7%
C/C=C(\C)C(=O)N[C@@H](c1ccccc1)[C@@H](O)C(=O)O[C@H]1C[C@@]2(O)[C@@H](OC(=O)c3ccccc3)[C@@H]3[C@]4(OC(C)=O)CO[C@@H]4C[C@H](O)[C@@]3(C)C(=O)[C@H](OC(C)=O)C(=C1C)C2(C)C: 84.2%
Nc1nc(N)nc(NC2CC2)n1: 61%

Series 4
Target: DNA polymerase theta, ATPase domain (POLQ, Homo sapiens, UniProt O75417)
Sequence of UniProt O75417 (whole entry, unmodified, looked up): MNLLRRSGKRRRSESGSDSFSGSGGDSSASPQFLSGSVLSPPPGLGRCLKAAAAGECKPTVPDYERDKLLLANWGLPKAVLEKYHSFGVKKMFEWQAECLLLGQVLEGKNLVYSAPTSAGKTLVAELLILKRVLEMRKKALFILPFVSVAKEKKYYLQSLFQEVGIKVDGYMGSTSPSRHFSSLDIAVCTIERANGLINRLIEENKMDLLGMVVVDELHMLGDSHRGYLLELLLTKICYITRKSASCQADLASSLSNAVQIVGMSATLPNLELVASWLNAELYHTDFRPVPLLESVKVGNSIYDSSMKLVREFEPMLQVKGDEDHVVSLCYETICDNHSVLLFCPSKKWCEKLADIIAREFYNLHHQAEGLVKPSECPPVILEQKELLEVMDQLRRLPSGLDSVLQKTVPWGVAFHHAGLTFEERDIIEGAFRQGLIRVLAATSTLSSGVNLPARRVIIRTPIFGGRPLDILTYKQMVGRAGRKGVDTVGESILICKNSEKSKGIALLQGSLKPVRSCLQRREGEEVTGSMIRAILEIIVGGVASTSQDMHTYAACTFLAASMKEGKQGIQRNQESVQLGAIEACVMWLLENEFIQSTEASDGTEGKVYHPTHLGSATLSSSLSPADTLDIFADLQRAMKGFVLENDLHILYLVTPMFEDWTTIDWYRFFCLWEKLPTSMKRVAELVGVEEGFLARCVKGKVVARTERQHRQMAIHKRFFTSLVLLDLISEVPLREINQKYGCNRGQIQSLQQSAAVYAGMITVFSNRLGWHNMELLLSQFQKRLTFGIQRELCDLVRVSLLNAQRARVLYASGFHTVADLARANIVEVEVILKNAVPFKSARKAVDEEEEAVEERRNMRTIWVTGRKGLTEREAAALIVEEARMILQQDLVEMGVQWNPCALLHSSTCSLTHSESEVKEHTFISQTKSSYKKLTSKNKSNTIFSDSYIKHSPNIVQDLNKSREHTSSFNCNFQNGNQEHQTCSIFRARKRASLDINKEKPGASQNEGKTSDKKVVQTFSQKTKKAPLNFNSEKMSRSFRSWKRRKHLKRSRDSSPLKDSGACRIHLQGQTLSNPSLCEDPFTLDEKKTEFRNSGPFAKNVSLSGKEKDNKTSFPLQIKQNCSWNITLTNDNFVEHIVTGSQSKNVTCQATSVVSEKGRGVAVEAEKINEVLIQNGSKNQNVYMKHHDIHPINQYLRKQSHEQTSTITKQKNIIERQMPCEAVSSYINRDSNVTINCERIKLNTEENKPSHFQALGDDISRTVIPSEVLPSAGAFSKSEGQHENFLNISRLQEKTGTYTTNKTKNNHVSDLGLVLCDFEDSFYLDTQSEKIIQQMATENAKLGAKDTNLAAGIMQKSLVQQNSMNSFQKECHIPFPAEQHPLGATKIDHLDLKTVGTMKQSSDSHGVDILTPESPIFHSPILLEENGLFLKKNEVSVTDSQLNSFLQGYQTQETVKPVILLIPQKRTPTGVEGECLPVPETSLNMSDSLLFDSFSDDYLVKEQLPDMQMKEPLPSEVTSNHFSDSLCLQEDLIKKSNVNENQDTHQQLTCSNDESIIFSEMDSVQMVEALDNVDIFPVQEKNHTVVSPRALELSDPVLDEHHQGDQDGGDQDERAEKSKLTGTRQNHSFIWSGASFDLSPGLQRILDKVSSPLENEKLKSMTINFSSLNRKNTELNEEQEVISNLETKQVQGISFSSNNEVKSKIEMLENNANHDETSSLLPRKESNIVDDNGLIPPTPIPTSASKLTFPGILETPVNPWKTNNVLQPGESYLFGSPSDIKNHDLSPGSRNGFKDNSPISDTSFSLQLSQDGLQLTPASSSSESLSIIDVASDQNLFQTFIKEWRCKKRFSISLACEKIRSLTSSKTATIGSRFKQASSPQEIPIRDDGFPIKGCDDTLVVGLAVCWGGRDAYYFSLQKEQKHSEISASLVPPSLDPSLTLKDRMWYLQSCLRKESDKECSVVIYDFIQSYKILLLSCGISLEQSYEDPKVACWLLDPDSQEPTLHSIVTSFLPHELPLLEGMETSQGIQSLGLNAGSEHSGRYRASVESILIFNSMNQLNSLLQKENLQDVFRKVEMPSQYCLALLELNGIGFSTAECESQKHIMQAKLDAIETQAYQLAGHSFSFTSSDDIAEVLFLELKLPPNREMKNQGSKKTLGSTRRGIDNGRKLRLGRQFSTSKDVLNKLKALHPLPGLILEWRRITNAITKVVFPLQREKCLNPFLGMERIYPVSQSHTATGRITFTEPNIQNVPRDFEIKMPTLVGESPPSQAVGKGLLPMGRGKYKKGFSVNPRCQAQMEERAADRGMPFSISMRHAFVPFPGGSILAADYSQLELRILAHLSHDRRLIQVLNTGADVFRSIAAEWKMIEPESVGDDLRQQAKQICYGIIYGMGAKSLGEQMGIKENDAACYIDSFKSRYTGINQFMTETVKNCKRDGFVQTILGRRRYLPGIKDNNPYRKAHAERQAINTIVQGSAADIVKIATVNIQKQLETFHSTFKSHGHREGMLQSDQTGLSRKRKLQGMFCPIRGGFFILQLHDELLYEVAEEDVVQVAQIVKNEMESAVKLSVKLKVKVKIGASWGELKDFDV
Read-out: enzyme activity
Mode: inhibitor
Tested at: 77 µM
Baseline: untreated
Measurement: remaining activity
CCC1(CC)C(=O)C=CNC1=O: 101%
CN1[C@@H]2CC[C@H]1C[C@@H](OC1c3ccccc3CCc3ccccc31)C2: 101%
CC(C)NCC(O)c1ccccc1Cl (stereo not drawn): 101%
Nc1nc(N)nc(NC2CC2)n1: 89.2%
COc1ccc2c3c([nH]c2c1)C(C)=NCC3: 101%
COc1ccc2c(c1OC)C(=O)O[C@@H]2[C@H]1c2cc3c(cc2CCN1C)OCO3: 98.2%
CC[C@@H]1/C=C/C=C/C[C@H](C)[C@H](O)[C@](C)(O)C(=O)[C@H](C)[C@@H](O)[C@H](C)C(=O)[C@H](C)[C@@H](O)[C@H](C)/C=C/C(=O)O[C@H]2[C@@H](C)[C@@H](CC1)O[C@@]1(CC[C@@H](C)[C@@H](C[C@H](C)O)O1)[C@@H]2C: 102%
CC(C)(C)[C@]1(O)C[C@@H]2OC(=O)C[C@@]23C(=O)O[C@@H]2OC(=O)[C@H](O)[C@]213: 101%
C[C@@H]1C[C@@H]([C@H](O)CC2CC(=O)NC(=O)C2)C(=O)[C@@H](C)C1: 101%
CN[C@@H]1C[C@@H](c2ccc(Cl)c(Cl)c2)c2ccccc21: 111%
CC[C@@H](C)C(=O)O[C@H]1[C@H](O)[C@H]2[C@@H](CN3C[C@@H](C)CC[C@H]3[C@@]2(C)O)[C@@H]2C[C@]34O[C@]5(O)[C@@H](OC(=O)[C@@](C)(O)CC)CC[C@@]3(C)[C@@H]5[C@@H](OC(C)=O)[C@@H](OC(C)=O)[C@H]4[C@@]21O: 94.7%
CN(C)[C@@H]1C(=O)C(C(N)=O)=C(O)[C@@]2(O)C(=O)C3=C(O)c4c(O)cccc4[C@@](C)(O)C3[C@H](O)C12 (stereo partly drawn): 98.8%

Single results of other studies
CN(C(=O)c1ccn2ncc(-c3ccc(C(N)=O)cc3)c2c1)c1ccc(C#N)cn1 — fold IC50 shift (C. parvum PI4K Y705A; enzyme activity, inhibitor, ADP-Glo; baseline: mutant over wild type): 9.05 and 10.6
